Measurements of several laboratories.
Protocols differ between the studies behind these lines. ± marks the error that the study gave.
Cell line: BEAS-2B

| SMILES | effect on | method | time | IC50 |
| --- | --- | --- | --- | --- |
| CC(=O)O[C@H]1C[C@H](O[C@H]2[C@@H](O)C[C@H](O[C@H]3[C@@H](O)C[C@H](O[C@H]4CC[C@@]5(C)[C@H](CC[C@@H]6[C@@H]5CC[C@]5(C)[C@@H](C7=CC(=O)OC7)CC[C@]65O)C4)O[C@@H]3C)O[C@@H]2C)O[C@H](C)[C@H]1O[C@@H]1O[C@H](CO)[C@@H](O[C@@H]2O[C@H](CO)[C@@H](O)[C@H](O)[C@H]2O)[C@H](O)[C@H]1O | cell growth or viability | MTT | 48 h | 0.45 µM |
| COc1ccc(S(=O)(=O)Nc2ccc(CCCC(=O)O[C@H]3c4cc5c(cc4[C@@H](c4cc(OC)c(OC)c(OC)c4)[C@H]4C(=O)OC[C@@H]43)OCO5)cc2)cc1 | cell growth or viability | CCK-8 | 24 h | 81.2 µM |
| CN(C)c1ccc(/C=C2\Oc3cc(O)ccc3C2=O)cc1 | cell growth or viability | MTT | – | > 100 µM |
| CCN(CC)c1ccc2c(c1)Oc1cc(N(CC)CC)ccc1C21c2ccccc2C(=O)N1N=Cc1c[c-]c(-c2ccccn2)cc1.Cc1c(C)c(-c2ccc(-c3ccccc3)cc2)[c-](C)c1C.[Cl-].[Ir+3] | cell growth | MTT | 24 h | 30.12 ± 0.3 µM |
| COc1c(O)cc2oc3c(Br)c(O)c(CCC(C)C)c(O)c3c(=O)c2c1CCC(C)C | cell growth or viability | – | – | 16.1 µM |
| O=C(Nc1ccc([N+](=O)[O-])cc1)C(c1ccc(C(F)(F)F)cc1)N(Cc1ccccc1)C(=O)c1ccc2ccccc2n1 (stereo not shown) | – | – | 48 h | 40.7 ± 2.8 µM |
| COc1c(O)cc2oc3cc4c(c(O)c3c(=O)c2c1CC=C(C)C)C=CC(C)(C)O4 | cell growth or viability | – | – | 18.6 µM |
| COc1cc([C@@H]2c3cc4c(cc3[C@H](OC(=O)CCCc3ccc(NS(=O)(=O)c5ccccc5Br)cc3)[C@H]3COC(=O)[C@H]23)OCO4)cc(OC)c1OC | cell growth or viability | CCK-8 | 24 h | > 100 µM |
| Cc1c(C)c(-c2ccc(-c3ccccc3)cc2)[c-](C)c1C.Cc1c(C)c(-c2ccc(-c3ccccc3)cc2)[c-](C)c1C.[Cl-].[Cl-].[Cl-].[Cl-].[Ir+3].[Ir+3] (stereo not shown) | cell growth | MTT | 24 h | > 50 µM |
| COc1c(O)cc2oc3c(Cl)c(O)c(CC=C(C)C)c(O)c3c(=O)c2c1CC=C(C)C | cell growth or viability | – | – | > 40 µM |

Repeated from above:
| SMILES | effect on | method | time | IC50 |
| --- | --- | --- | --- | --- |
| COc1c(O)cc2oc3c(Br)c(O)c(CCC(C)C)c(O)c3c(=O)c2c1CCC(C)C | cell growth or viability | – | – | 16.1 µM |
